Published values pooled from the literature.
Parts stem from different laboratories: compare values within a part only.

Series 1
Target: RNA binding protein fox-1 homolog 2, RRM domain, GST-SBP tag (RBFOX2, Homo sapiens, UniProt O43251-10, residues 100-194)
Method: RNA Bind-n-Seq
Molecule type: RNA
Matrix: in vitro
Concentration: 365 nM
Notes: natural RNA segment, single round, ends assumed
Reference: no-protein control
Direction: higher = stronger binding
All sequences stand within: GGGAGUUCUACAGUCCGACGAUC … UGGAAUUCUCGGGUGCCAA
Residues (chain): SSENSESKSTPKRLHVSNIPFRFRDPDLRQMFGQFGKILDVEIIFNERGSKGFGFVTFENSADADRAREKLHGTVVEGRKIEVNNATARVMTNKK
Strand | RBNS enrichment (R)
AGGCCCGUCUCUCCUGUAGGCUUUUAAUUCAAUGGCAACUCUAUUUCAAAGAAUAAAAGCCUUUGGAGAGUUGCGGCAGUUCUGGGGGCGGGCUCAGGAGAGUCCAUAGA | 0.417
CUCGAGUUACACAUAUGCAUAUGUCACACUGUCACUCAGUGUGUGGAUAUGCCUAUGUCACACUGUCACUCAGUGUGUGGAACUUUCUCUUUAAAGGUGUAACAUCUUAA | 0.346
UUUUAAAUAAUAUUGAAUUUAAAAAAAUGUAUUGCAGUAGUGUGUCAGUACCUUAUUGUUAAAGUGAGUCAGAUAAAUCUUCAAUUCCUGGCUAUUUGGGCAAUUGAAUC | 0.585
AUUUUAAUUUGUUGGCUGGAUGUAUAAAGAUGUUUAAAAAAUUCAGUUGCUUUUUGGGGUAAUUUGAAUUACUUUUUUAAUGACUGGGGUUCCAUUUGACUGUUUGCAUU | 2.98
AUUAUCUGAGGAAACUCAAUGGGUAUGAAGAUGAUCAAUUCUGUAAGCCUUGUGGCUGUGCUGUCAUGCCUAGGAUAGCAUUCAACAUAACUUUAACAAAAUUAAACAUU | 1.33
UUUAAAAUAAAGCCCUGGGCCAGAAAGGCAAUGUGGCUAAAGAAUGUAUUGCACUAUACUUCUAAUGGAACUAAUCAUCUCCACCAUAGUGUGUGCCUUCUAUAAAGGAG | 0.494
AUCAGCAGUGAUGGAAUUUGCUGGAGGACUAGGCCAGAGCAAGCCUCACUGCCACUGUGCCUUUGGGGCACCCUUGGGGUUGGACAUACACCCCCUUUAGAUUCCUCUGU | 0.339
UGUUUUGUGAUAUUUUAUUGUAUAAACUGUUAAUGAGAGGCACAGCUAAUUGUACAUAUCAAUAUACAUUUAAAAUCUGGUAACACUGGUUAAAUAGCCCUUGAUGACUU | 0.477
UUGACCCAGGCUCUUAUAGAUAGGUCCUAAACAUUGCUGUUCACUAGAUUAUCUUAACAAAUAAUACUCAGCUAAAUAUUUGCAUUUAGGAAUACUCCUAAAACAGAUAU | 0.501
AAUGUAUGUCUCUAGGACAUUUUAUAGUUUUAAGAGGAAGAAAACAGAAACGUGGCAUCAUUUGGGAAGAACCAAGGUAGAAUUUAAUUUUCUGGACUUUAAAUCUCCUG | 0.913
UGACACACACGCCAUCAGCCCUUGGGUGAUGACAGUGACCAGUGUUGUAUGGGGCUUUCCCAGAAUCCCCUUCCCUGAGCAUCCUGGUCUCCCCCACACACACCUGUCAC | 0.332
UCUUUAGCAUAAAUGCAUUCAUUCUUUAAUAAAAAUAUGUUUGCAUUAAUAAAGCUGAGGAGUUUCAACUUUGUGUCUGUCCUUUUUCAAGUAAUAAAAACAUGAAGAAC | 0.317

Series 2
Target: Prothrombin, mature alpha-thrombin (F2, Homo sapiens, UniProt P00734)
Method: aptamer microarray, sandwich
Molecule type: DNA with 2'F-ANA
Matrix: in vitro
Concentration: 200 nM
Notes: whole 15-mer aptamer, many near background
Together with: Cy3 exosite-II aptamer, 400 nM
Direction: higher = stronger binding
Strand: GGTTGGTGTGGTTGG
Modification | mean fluorescence intensity [a.u.]
2'F-ANA at 1 3 11 | 508
2'F-ANA at 1 2 4 10 12 14 | 49.4
2'F-ANA at 1 2 3 6 7 9 13 14 15 | 65.8
2'F-ANA at 1 3 5 6 8 9 14 15 | 46.3
2'F-ANA at 6 7 9 10 11 13 14 15 | 97.1
2'F-ANA at 1 7 11 12 15 | 319
2'F-ANA at 1 3 7 8 11 12 15 | 553
2'F-ANA at 1 2 3 4 5 6 7 10 12 13 | 54.3
2'F-ANA at 1 2 3 4 5 6 7 9 12 13 | 72.8
2'F-ANA at 1 2 4 8 10 11 12 14 15 | 53.1
2'F-ANA at 3 4 6 7 8 9 10 15 | 307
2'F-ANA at 2 4 7 9 10 11 12 13 14 15 | 65
2'F-ANA at 1 3 5 8 10 11 12 13 15 | 46.7
2'F-ANA at 2 3 5 6 7 9 11 12 13 14 15 | 124
2'F-ANA at 4 5 8 10 12 | 47.9
2'F-ANA at 2 3 5 6 11 13 14 | 49.5
2'F-ANA at 1 2 6 9 10 11 12 14 | 51.5
2'F-ANA at 1 3 4 5 6 10 13 14 15 | 56.6
2'F-ANA at 2 3 5 6 7 10 13 | 61.6
2'F-ANA at 2 3 6 7 12 15 | 1030
2'F-ANA at 3 5 6 8 9 10 11 13 15 | 82.9
2'F-ANA at 5 6 7 8 12 13 | 133
2'F-ANA at 2 4 11 15 | 262
2'F-ANA at 2 11 13 | 340
2'F-ANA at 2 4 6 7 9 11 12 13 | 254

Series 3
Target: RING finger protein unkempt homolog, zinc fingers 1-6, GST-SBP tag (UNK, Homo sapiens, UniProt Q9C0B0, residues 30-357)
Method: RNA Bind-n-Seq
Molecule type: RNA
Matrix: in vitro
Concentration: not given
Notes: RNA with constant flanks, human and mouse sites, ends assumed
Reference: input RNA pool
Direction: higher = stronger binding
All sequences stand within: GGGAGUUCUACAGUCCGACGAUC … CAACAGAGGAUUGAGCAUCA
Target sequence (chain): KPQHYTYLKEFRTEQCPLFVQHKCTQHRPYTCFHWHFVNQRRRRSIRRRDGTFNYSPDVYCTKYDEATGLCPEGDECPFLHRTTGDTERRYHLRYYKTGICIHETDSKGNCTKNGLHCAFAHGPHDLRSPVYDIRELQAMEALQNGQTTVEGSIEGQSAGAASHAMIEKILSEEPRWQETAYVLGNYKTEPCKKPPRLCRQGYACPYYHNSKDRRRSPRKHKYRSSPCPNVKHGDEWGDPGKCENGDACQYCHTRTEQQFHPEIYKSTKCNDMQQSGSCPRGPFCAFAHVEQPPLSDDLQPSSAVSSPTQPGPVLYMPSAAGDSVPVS
Strand | bound/input enrichment [ratio]
CUCAAUGCAUUGACCAAGCAUGUCUCACCACUGAUAGGACGUUUUGUUCCCUUUGCUGCCGUAGCUGCUGCUAAUUGCAUUAAUAUUCCAUUAAUGAGGCAAAGGGAACUCAAAGUUGGC | 0.144
GGCUGUGGUAAGCGGGACCAUGCCUCCAACAUCUAUAAAGUGGAGGGUGGCUGUAUCACUAAGCUGGAGACCUUCAUUCAGGAGCACCUGCGGGUCAUUGGGGCGGUGGGCAUUGGCAUC | 0.227
CCCAGUUUCAUCGGACUCCCUGGCCCCAUCCCGUCCCCGCCCUGGCCCCUUUGUGCCCCUUCUCAUCGUUUUCUCCCUCCUUCCCGGGCUUGGCGUCCCUUCUCCACCCCUAACUCCUUC | 1.16
CGAAGUGAAACGCUCGGCUGGUCGGCCUUGCUCUCGAUAUCGACCCCCGCAAACUUUACUCCUUAAUAAUCGGCUACGUCCGUUUCGUUGUCGGUAUCGGUCUUCAGCAACCAUGCUGGA | 0.151
ACCCAUGCUUUUAUGGACACUAGGUAAACACCUUCAGCUUAAAUUUUUCGUUAAAUAUUUUAGUUUAUUUUAUUGUUAUCUUCCAGGUGUCUAAAUCUCCAGUCUGUCUGUUGUACUGGU | 6.62
UGUAUGCUUUUCCUUGUGUAAAAUCAUUGUUCUUUUUGACAAGUGGUUUGUUUCAUUUAUUAUAGCUUUGAAAUAAAAAAUCGUGAGGGAAAAAAAAUCCAAUGAUUGUACUGUGGUUAG | 0.382
GAGAAGACAGGGCACAGUGGUACGCUGGAUCCCAAGGUGACUGGUUGUUUAAUCGUGUGCAUAGAACGAGCCACUCGCUUGGUGAAGUCACAACAGAGUGCAGGCAAAGAGUAUGUGGGG | 0.328
UGAACUACAAAGAGUAGAAGAGCUUUAUGAUUCAUUAUUACAAGCUAUUGCCUUCUAUGAAUUAGCAGUGUUUGACUCUCAGCCUUAGAAUUCUGAGGUUAACGUGCUAAAGUAUAAUUA | 0.207
UCGGAGGGCAGUGGCGGGAGCACUACUGGUUGGCGCGCUCGGGAGGAGCAGCCGCCGUCGGUGGCCGAGGGCUACGCCUCGCAGGACGUGUUCAGCGCCACCGAGACCAGUCUAUGGUAC | 0.177
GGGGAAAAUUUUGCCUAUGUUCAAAUUAAGACAAUUUGGUCCACUAUGCUUCGUUUAUAUGAAUUUGAUCUCAUUGAUGGAUACUUUCCCACUGUGAAUUAUACAACUAUGAUUCACACC | 0.108
AGCCGCUGCACCUCGAAAUGUGUGUUUUUUAGCCAGCUCCUUGCUGUACUGAUUCAGAUGCAGCUAAGGUUUCUGACCAUGGAACAAGGGCUGAUGAAGUUGGACCUGAGGCCUAGAGCC | 0.0944

Series 4
Target: Interferon regulatory factor 7, full length, phosphomimetic (IRF7, Homo sapiens, UniProt Q92985, residues 1-503, S101K/S471D/S472D/S475D/S476D/S477D/S483D/S484D/S487D)
Method: protein-binding microarray
Molecule type: double-stranded DNA, one strand shown
Matrix: in vitro
Concentration: 250 nM
Notes: 60-bp whole probe
Together with: salmon DNA 0.4 mg/ml
Reference: random background probes
Direction: higher = stronger binding
All sequences stand within: GCCTAGCAC … GTCTTGATTCGCTTGACGCTGCTG
Target sequence (chain): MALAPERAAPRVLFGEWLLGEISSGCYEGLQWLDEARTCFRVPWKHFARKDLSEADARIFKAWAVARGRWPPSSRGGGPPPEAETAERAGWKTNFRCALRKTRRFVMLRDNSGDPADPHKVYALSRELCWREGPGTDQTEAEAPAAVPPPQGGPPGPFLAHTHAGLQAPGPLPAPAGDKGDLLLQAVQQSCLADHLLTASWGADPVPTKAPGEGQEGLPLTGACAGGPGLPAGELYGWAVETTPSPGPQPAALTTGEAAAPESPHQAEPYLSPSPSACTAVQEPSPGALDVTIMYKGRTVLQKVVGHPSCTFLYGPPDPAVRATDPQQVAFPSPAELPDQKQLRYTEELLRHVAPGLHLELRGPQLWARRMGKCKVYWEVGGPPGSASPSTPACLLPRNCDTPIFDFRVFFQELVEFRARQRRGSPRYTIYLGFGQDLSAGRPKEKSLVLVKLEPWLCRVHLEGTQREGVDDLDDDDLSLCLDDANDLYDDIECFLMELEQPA
Strand | log fluorescence
GACGAACTGAGACTGGACACGTGCTAG | -0.063 z-score
TTAGATGTCGGGTATCGATTAGTGCTA | 0.362 z-score
GGCGATATCGGGTATCGAGACGTGCTA | -0.638 z-score
AACGATCTCAGTCTCGAGACGTGCTAG | 0.568 z-score
TCAGTTTCTGATATGGTACTGTGCTAG | 2.57 z-score
TTAGAACTGCGTTTCGATTAGTGCTAG | 2.67 z-score
GACGGTTTCAGTATCGGGACGTGCTAG | 2.92 z-score
GACGGTCTCCTTTTCCAGACGTGCTAG | 1.27 z-score
CACTTTCTTTACTTCACTCTGTGCTAG | 2 z-score
GACGGTTTCGGGTTCCGGGACGTGCTA | 11.7 z-score
AACTGCATCCCAGGAGCTGGGTGCTAG | 0.0615 z-score
CTAGGACTGGGACTGGGTTAGTGCTAG | 0.231 z-score
TTAGAACTGGGGACGGGATTAGTGCTA | -0.0666 z-score
TTAGAGCTGAGACTGGATTAGTGCTAG | -0.816 z-score
TCAGGTCTGGGTATTTTACTGTGCTAG | -0.926 z-score
TGAGGTATCGACACTGGGTTAGTGCTA | -0.8 z-score
TTAGGTTCCCTTTTCTTTTAGTGCTAG | 3.89 z-score
ACTGATCACCGATTTCCTTCAGTGCTA | 0.139 z-score
GACGATTTCGGGTTTCGAGATGTGCTA | 5.33 z-score
TTAGAACTGGGGTATCGATAAGTGCTA | -0.242 z-score
TTAGGTATCGTTATCCTTTAGTGCTAG | 2.49 z-score
TCAGGTTTCGGTTTCGGTTAGTGCTAG | 15.2 z-score
TTACGTATCGGTTTCGGTTAGTGCTAG | 8.96 z-score
TCAAGTCTCTGTTCTTTACTGTGCTAG | 2.22 z-score
GTAGAACTGAGTATCGATTAGTGCTAG | 0.379 z-score

For quick reference, copied from above (series 2):
Modification | mean fluorescence intensity [a.u.]
2'F-ANA at 3 4 6 7 8 9 10 15 | 307
2'F-ANA at 2 4 7 9 10 11 12 13 14 15 | 65
2'F-ANA at 1 3 5 8 10 11 12 13 15 | 46.7
2'F-ANA at 2 3 5 6 7 9 11 12 13 14 15 | 124
2'F-ANA at 4 5 8 10 12 | 47.9
2'F-ANA at 2 3 5 6 11 13 14 | 49.5
2'F-ANA at 1 2 6 9 10 11 12 14 | 51.5
2'F-ANA at 1 3 4 5 6 10 13 14 15 | 56.6
2'F-ANA at 2 3 5 6 7 10 13 | 61.6
2'F-ANA at 2 3 6 7 12 15 | 1030
